Results gathered from unrelated publications.
Every numbered part comes from another study and shows a few of its results, in no order. Several values in a cell are separate wells, animals, samples, runs or records.

Study 1
Target: Histone acetyltransferase KAT6A, both winged helices, GST fusion (KAT6A, Homo sapiens, UniProt Q92794, residues 1-181)
Method: protein binding microarray
Molecule type: double-stranded DNA, one strand shown
Matrix: in vitro
Tested at: not given
Setting: 8-mer, flanks averaged, mean of 2 arrays, mostly near background
Baseline: not given
Direction: higher = stronger binding
Quantity: E-score
Target sequence (chain): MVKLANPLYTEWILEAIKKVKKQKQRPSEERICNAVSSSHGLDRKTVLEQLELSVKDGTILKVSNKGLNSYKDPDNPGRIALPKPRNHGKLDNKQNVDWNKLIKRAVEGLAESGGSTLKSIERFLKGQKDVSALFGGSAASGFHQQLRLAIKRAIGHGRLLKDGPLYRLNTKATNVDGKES
GTTGGTTA: -0.0952
ACTTGTCA: -0.0535
AGTGGTTC: -0.018
CAGGAACA: -0.218
ACTACCAT: -0.131

Study 2
Target: Ras GTPase-activating protein-binding protein 1, C-terminal RGG region (G3BP1, Homo sapiens, UniProt Q13283)
Sequence of UniProt Q13283 (whole entry, looked up): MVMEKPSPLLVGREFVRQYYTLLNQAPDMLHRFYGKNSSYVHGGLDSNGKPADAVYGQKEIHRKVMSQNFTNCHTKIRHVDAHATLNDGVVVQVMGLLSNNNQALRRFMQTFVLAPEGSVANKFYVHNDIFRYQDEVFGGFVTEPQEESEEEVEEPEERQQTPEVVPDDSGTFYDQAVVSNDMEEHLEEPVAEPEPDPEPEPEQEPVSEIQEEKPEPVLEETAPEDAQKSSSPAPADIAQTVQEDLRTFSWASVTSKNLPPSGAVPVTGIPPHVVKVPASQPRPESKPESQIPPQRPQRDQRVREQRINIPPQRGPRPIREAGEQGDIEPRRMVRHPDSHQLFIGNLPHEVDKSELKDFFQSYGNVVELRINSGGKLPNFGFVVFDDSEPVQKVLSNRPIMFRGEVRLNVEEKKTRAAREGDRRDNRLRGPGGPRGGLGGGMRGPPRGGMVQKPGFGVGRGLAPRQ
Method: RNA Bind-n-Seq
Molecule type: RNA
Matrix: in vitro
Tested at: 1 µM
Setting: whole 134-nt RNA, ends assumed
Together with: 150 mM KCl
Baseline: input library
Direction: higher = stronger binding
Quantity: log2 enrichment
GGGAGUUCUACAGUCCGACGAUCAAGUCCUGUGCUACACAUCGUAUGUACCGAAUCGGGUUUUUGGGAAAGGGUUUGGGAAAGUAUUAUGUUACGCCGUUCGGAUCUGCACUUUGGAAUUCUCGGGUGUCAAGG: 1.2
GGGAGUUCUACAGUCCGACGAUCCAAGUCCUGUGCUACACAUCGUAUGUACCGAAUCGGGAAAGGGGAAAGGGAAAGGAAAGUAUUAUGUUACGCCGUUCGGAUCUGCACUUCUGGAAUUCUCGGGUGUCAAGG: -1.3
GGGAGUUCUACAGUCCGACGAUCGCAGGAAGUAAAAACAAAUGGAAAUGCUUCGGAUAGUGGCAGGGGUGGGGGUUGCUAUGGAAAGGGUGGGAUGGGAGUGGGUAAAGAGUUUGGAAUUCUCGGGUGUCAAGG: 2.29
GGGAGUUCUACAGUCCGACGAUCUCCUGUGCUACACAUCGUAUGUACCGAAUCGGGGAAAAAAAGGGGUGGGGAAAAAGGGGAAAGUAUUAUGUUACGCCGUUCGGAUCUGCAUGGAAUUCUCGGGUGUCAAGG: 1.17
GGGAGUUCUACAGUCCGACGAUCUCCUCAAGUCCUGUGCUACACAUCGUAUGUACCGAAUCGGUGGGGUGGUGGGAAAGUAUUAUGUUACGCCGUUCGGAUCUGCACUUCCAGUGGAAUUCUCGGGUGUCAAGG: 0.0353

Study 3
Target: Sal-like protein 4, full length isoform A (SALL4, Homo sapiens, UniProt Q9UJQ4, residues 1-1053)
Sequence of UniProt Q9UJQ4 (whole entry, looked up): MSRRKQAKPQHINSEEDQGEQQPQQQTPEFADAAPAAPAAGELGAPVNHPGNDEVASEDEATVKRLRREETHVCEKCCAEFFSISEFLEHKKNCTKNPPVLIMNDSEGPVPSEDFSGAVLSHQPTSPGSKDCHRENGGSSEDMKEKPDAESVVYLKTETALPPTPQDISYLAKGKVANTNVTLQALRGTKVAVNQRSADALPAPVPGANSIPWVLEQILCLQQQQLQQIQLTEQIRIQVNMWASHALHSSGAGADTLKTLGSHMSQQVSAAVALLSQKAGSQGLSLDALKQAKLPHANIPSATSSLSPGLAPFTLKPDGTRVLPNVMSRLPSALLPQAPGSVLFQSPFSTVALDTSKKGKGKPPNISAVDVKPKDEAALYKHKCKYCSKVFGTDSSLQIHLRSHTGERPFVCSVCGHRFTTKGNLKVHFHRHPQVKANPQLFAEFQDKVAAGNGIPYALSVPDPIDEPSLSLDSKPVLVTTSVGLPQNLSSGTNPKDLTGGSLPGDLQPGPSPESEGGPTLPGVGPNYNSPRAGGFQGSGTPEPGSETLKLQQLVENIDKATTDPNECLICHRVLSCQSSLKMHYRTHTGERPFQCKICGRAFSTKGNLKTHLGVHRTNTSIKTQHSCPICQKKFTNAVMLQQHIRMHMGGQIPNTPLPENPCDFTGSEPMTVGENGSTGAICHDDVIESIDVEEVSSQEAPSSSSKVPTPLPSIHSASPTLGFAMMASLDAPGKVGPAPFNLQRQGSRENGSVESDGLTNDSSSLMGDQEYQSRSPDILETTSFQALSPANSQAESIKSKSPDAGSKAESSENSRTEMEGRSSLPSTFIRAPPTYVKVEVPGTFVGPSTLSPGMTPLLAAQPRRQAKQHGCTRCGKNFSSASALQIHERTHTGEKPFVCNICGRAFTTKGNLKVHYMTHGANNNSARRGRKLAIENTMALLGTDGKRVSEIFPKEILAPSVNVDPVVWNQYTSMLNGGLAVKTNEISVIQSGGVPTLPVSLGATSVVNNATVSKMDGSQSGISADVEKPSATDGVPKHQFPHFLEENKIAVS
Method: universal PBM
Molecule type: double-stranded DNA, one strand shown
Matrix: in vitro
Tested at: 600 nM
Setting: 8-mer, flanks averaged, mean of replicates
Direction: higher = stronger binding
Quantity: E-score
ACTGTATG: 0.18
ACACATGG: 0.0026
CAGCGGCA: -0.281
ATGTACCG: 0.0139
GTAGCTCA: -0.0357
ACACAACT: 0.134
ACGCTGTA: 0.0957

Further values, each from its own experiment
PhoQ, residues 284 288 289 292 302 303 AANNSF — fold induction (PhoP, residues 12 14 15 18 19 LWHSL (Escherichia coli, UniProt P23836); Sort-seq, measured: YFP reporter; E. coli; PhoQ-PhoP variant library, together with: 10 µM Mg2+; baseline: high Mg2+ state, higher = stronger signaling): 18 and 8.15

Repeated from above (further values, each from its own experiment):
PhoQ, residues 284 288 289 292 302 303 AANNSF — fold induction (PhoP, residues 12 14 15 18 19 LWHSL (Escherichia coli, UniProt P23836); Sort-seq, measured: YFP reporter; E. coli; PhoQ-PhoP variant library, together with: 10 µM Mg2+; baseline: high Mg2+ state, higher = stronger signaling): 18 and 8.15
